Measured values gathered from unrelated publications.
Protocols differ between the studies behind these lines. Several values in a cell are separate wells, animals, samples, runs or records. Numbers after ± are the reported error.
EIF4E: Eukaryotic translation initiation factor 4E (EIF4E, Homo sapiens, UniProt P06730)

The remaining binding of `CCOC(=O)[C@@H]1Cc2c(cc([N+](=O)[O-])cc2[N+](=O)[O-])[C@H](O)[C@]12C(=O)Nc1ccc(Br)cc12` is reported as 97% (MAP3K4 (Homo sapiens, UniProt Q9Y6R4); binding, competition with immobilised ligand; 0.1 µM).
The selectivity ratio of `OC1Cc2ccccc2CC1N1CCC2(C=Cc3ccc(Br)cc32)CC1` (racemic) is reported as 32 (Vesicular acetylcholine transporter (Rattus norvegicus, UniProt Q62666); rat liver (sigma2); baseline: Ki sigma2 over Ki VAChT).
For `Nc1nc2c(c(=O)[nH]1)[n+](Cc1cc3cc(Cl)ccc3s1)cn2C/C=C\CP(=O)(O)O`, the IC50 was 16000 ± 200 nM (EIF4E; inhibitor, fluorescence polarization; 40 min, with: m7GTP-FAM probe 15 nM).
`O=C(Cc1ccc(Cl)cc1)N1CCN(CC(OCc2ccc3ccccc3c2)c2ccc(Cl)cc2Cl)CC1` (stereo not drawn): “activity vs control” 160% (ULK1 (Homo sapiens, UniProt O75385); enzyme activity, inhibitor, ADP detection; 0.1 µM).
`COCC1CCCCN1C(=O)n1cc(C(O)(c2ccccc2)c2ccccc2)nn1` (stereo not drawn) has an SILAC ratio of 1.14 and 1.27 and 1.48 and 1.66 and 1.84 (Presenilin-associated rhomboid-like protein, mitochondrial (Parl, Mus musculus, UniProt Q5XJY4); probe labelling, inhibitor, competitive ABPP-SILAC, item: Parl; mouse T cells; concentration not given, 4 h, in situ, single peptide; baseline: treated over DMSO, lower = more inhibition).
`O=C(N[C@@H]1c2ccccc2C[C@H]1N1CCCC1)c1ccc(-c2ccnc3[nH]ccc23)nc1` gave a remaining binding of 55% (MAP2K2 (Homo sapiens, UniProt P36507); binding, competition with immobilised ligand; 3 µM).
`CCC[C@@H](C(=O)c1ccccc1)N1CCCC1` gave a Ki of 9 nM (SLC6A3 (Homo sapiens, UniProt Q01959); dopamine uptake, inhibitor; HEK293 transiently transfected; DAT F76Y mutant, with: [3H]dopamine).
`COc1ccc(NC(=S)NCCN2CCC(C)CC2)cc1Cl`: IC50 “inactive” (uncharacterized protein (Apis mellifera, UniProt A0A7M6W5G5); enzyme activity, inhibitor, Ellman; up to 1000 µM, pH 7.4, 30 °C, with: 1 mM acetylthiocholine).
`Nc1ccn(C2OC(COP(=O)(O)OP(=O)(O)OP(=O)(O)O)C(O)C2(F)F)c(=O)n1` (stereo not drawn) gave a Hill coefficient of 1.7 ± 0.1 (pyrG (Escherichia coli, UniProt P0A7E5, C268A); enzyme activity; with: UTP 0.05 mM).
For `C[C@H](NCc1ccc(-c2ccc(C(F)(F)F)cc2)cc1)C(N)=O`, the inhibition was 0% (Tyrosine-protein kinase ABL1, phosphorylated (ABL1, Homo sapiens, UniProt P00519, E255K); cell-free assay, competition with immobilised ligand; 1 µM).
With `Nc1nc2c(c(=O)[nH]1)[n+](Cc1cn3cc(Cl)ccc3n1)cn2C/C=C\CP(=O)(O)O` the IC50 was 4000 ± 300 nM (EIF4E; inhibitor, fluorescence polarization; 40 min, with: m7GTP-FAM probe 15 nM).
For `N=C(N)NCCC[C@@H]1NC(=O)[C@H](CCCCNC(=O)CCC(NC(=S)Nc2ccc(CC3CN(CC(=O)O)CCN(CC(=O)O)CCN(CC(=O)O)CCN3CC(=O)O)cc2)C(=O)NCCCC[C@@H]2NC(=O)[C@@H](Cc3ccc(O)cc3)NC(=O)[C@H](CC(=O)O)NC(=O)CNC(=O)[C@H](CCCNC(=N)N)NC2=O)NC(=O)[C@@H](Cc2ccc(O)cc2)NC(=O)[C@H](CC(=O)O)NC(=O)CNC1=O` (stereo partly drawn) [scandium-44 labelled], the tissue uptake was 1.55 ± 0.53 %ID/g (PET imaging ROI; female athymic nude mice, U-87 MG xenograft, liver; intravenous, 2 h).
With `CC(C)CC(O)(CC(C)C)c1cn(C(=O)N2CCCC2)nn1` the activity ratio-of-ratios was 0.9 (Dipeptidyl peptidase 9 (Dpp9, Mus musculus, UniProt Q8BVG4); probe labelling, inhibitor, item: Dpp9; mouse, brain; i.p., 0.8 mg/kg, 4 h, protein level; baseline: treated over vehicle mice, lower = stronger inhibition).
`CCOC(=O)[C@@](CC)(CCCSCCOCCOCCNc1ccc([N+](=O)[O-])c2nonc12)NC(=O)c1ccc(C2CC2)c(Cc2ccc(F)cc2)n1` gave an Emax of 69% (Cnr2 (Mus musculus, UniProt P47936); cAMP, agonist).
With `CS(C)(=O)=Nc1ccc(-c2ccc(-c3nc4cc(O[C@@H]5CO[C@H]6[C@@H]5OC[C@H]6O)[nH]c4cc3F)cc2)cc1` the inhibition was 22% (Tyrosine-protein kinase Tec, phosphorylated (TEC, Homo sapiens, UniProt P42680); enzyme activity, inhibitor; 10 µM).
`Cc1cc(-c2ccc3ccccc3c2)nnc1NCCN1CCN(C)CC1` — result for antagonist activity: “negative” (HTR2A (Homo sapiens, UniProt P28223); antagonist; concentration not given).
`CON(C(=O)c1cn(C)nc1C(F)F)C(C)Cc1c(Cl)cc(Cl)cc1Cl` (stereo not drawn) gave a reaction velocity of 0.00238 µM/s and 0.00258 µM/s and 0.00222 µM/s (SDHD/SDHC/SDHB (Sus scrofa, UniProt A5GZW8+D0VWV4+Q007T0); enzyme activity, inhibitor, DCIP reduction; pig; 0.3 µM, with: DCIP 10 µM).
The Emax of `CC[C@H](C)[C@H](NC(=O)[C@H](CCCNC(=N)N)NC(=O)[C@H](CCCNC(=N)N)NC(=O)[C@H](CC(C)C)NC(=O)[C@H](Cc1ccccc1)NC(=O)CNC(=O)CNC(=O)[C@@H](N)Cc1ccc(O)cc1)C(=O)N[C@@H](CCCNC(=N)N)C(=O)N1CCC[C@H]1C(=O)N[C@@H](CCCCN)C(=O)N[C@@H](CC(C)C)C(=O)N[C@@H](CCCCN)C(=O)O` is reported as 61.9% and 48.6% (GPR139 (Homo sapiens, UniProt Q6DWJ6); GαoB activation, agonist, BRET; HEK293T/17; 40 µM).
For `O=C1NC2(CC2)COc2ncc(F)cc2[C@H]2COCCN2c2ccn3ncc1c3n2`, “organ-to-brain weight ratio” read 647 ± 41.8% (Sprague-Dawley rat, male, liver; oral, 5 mg/kg/day, 4 weeks dosing, end of recovery).
Under binding, `CN(C)Cc1c[nH]c2cc(F)ccc12` is recorded as “no binding” (GTPase HRas, GDP-bound (HRAS, Homo sapiens, UniProt P01112, G12V); ligand-detected 1H NMR; concentration not given).
`O=C1NC(=O)c2c1c1cc(F)c[n+]3c1c1c2c2cc(O)ccc2[n]1[Ru-4]312([N]=C=S)[S+]3CC[S+]1CC[S+]2CC3` (stereo not drawn) gave a remaining activity of -2% (CSNK1G3 (Homo sapiens, UniProt Q9Y6M4); enzyme activity; 100 nM, human enzyme, with: 10 µM ATP; baseline: untreated).
The inhibition of `CC(C)[C@H]1NC(=O)C[C@H]2/C=C/CCSSC[C@@H](NC1=O)C(=O)N[C@H](Cc1cccc3ccccc13)C(=O)NCC(=O)O2` is reported as -7% (WNK3 (Homo sapiens, UniProt Q9BYP7); enzyme activity, inhibitor; 10 µM).
The MST response of `CN(C)CCCSC(=S)N1CCN(C(=O)/C=C/c2coc3ccccc3c2=O)CC1` is reported as 839 a.u. (Nucleoprotein (N, Tomato spotted wilt virus, UniProt P25999, Y184A); binding, microscale thermophoresis; 7.812 µM; dose series).
The EC50 of `CC(C)[C@H](NC(=O)[C@@H]1CSSC(C)(C)[C@H](NC(=O)[C@@H](N)CC(=O)O)C(=O)N[C@@H](Cc2ccccc2)C(=O)N[C@@H](Cc2c[nH]c3ccccc23)C(=O)N[C@@H](CCCCN)C(=O)N[C@@H](Cc2ccc(O)cc2)C(=O)N1)C(=O)O` is reported as 6.31 nM (UTS2R (Homo sapiens, UniProt Q9UKP6, I107A); IP1 accumulation, agonist, HTRF; HEK293T; 1 h, 37 °C, I107A mutant, 2.60).
`COc1ccccc1-c1n[nH]c2nc(N[C@H]3CC[C@H](NS(=O)(=O)CC(C)C)CC3)ncc12` gave a remaining binding of 14% (cdc2-related kinase 12 (Leishmania donovani, UniProt A0A3S7WQK2); competitor, bead pull-down competition; Leishmania donovani extract; 0.016 µM; baseline: vehicle).
`CC[C@H](C)[C@@H]1NC(=O)[C@H](CC(C)C)NC(=O)CNC(=O)[C@H](CCCNC(=N)N)NC(=O)[C@H](Cc2c[nH]c3ccccc23)NC(=O)[C@H](CCSC)NC(=O)[C@H](CO)NC(=O)[C@H](CCC(=O)O)NC(=O)[C@H](Cc2ccccc2)NC(=O)[C@H](CC(=O)O)NC(=O)[C@H]([C@@H](C)O)NC(=O)CNC(=O)[C@H](CCC(=O)O)NC(=O)[C@H]([C@@H](C)O)NC(=O)CNC(=O)[C@H](CC(=O)O)NC1=O` gave an AlphaLISA signal of 1340 a.u. and 1080 a.u. and 1250 a.u. (MDM2 (Homo sapiens, UniProt Q00987); MDM2-ligand binding, inhibitor, AlphaLISA competition; 25 µM, with: GST-tagged MDM2 ligand; lower = stronger inhibition).
`Cc1c(Cl)c(=O)oc2cc(OCCCCCC[Se]C#N)ccc12` gave a selectivity ratio of > 1110 (CA12 (Homo sapiens, UniProt O43570); stopped-flow CO2 hydration; baseline: Ki CA I over Ki CA XII).
`Cc1ccc2c(C(C[N+](=O)[O-])c3cccs3)c(-c3ccccc3)[nH]c2c1` (stereo not drawn) gave an EC50 of 1160 nM (CNR1 (Homo sapiens, UniProt P21554, S199A); G protein activation, agonist, BRET).
For `CC#CC(=O)NC[C@H](NC(=O)[C@H](CC1CCCCC1)NC(=O)[C@H](CCC(N)=O)NC(C)=O)C(=O)N[C@@H](CC(C)C)C(=O)N[C@@H](Cc1ccccc1)C(=O)O`, the ΔH was -17 kcal/mol (Beta sliding clamp (Escherichia coli, UniProt P0A988); binding, isothermal titration calorimetry; 37 °C).
For `N[C@H](C(=O)N1CCCC1)C1CCN(c2nccc3c(-c4ncc(Cl)cc4Cl)cccc23)CC1`, the kcat was 0.409 s⁻¹ and 0.414 s⁻¹ (PADI1 (Homo sapiens, UniProt Q9ULC6); enzyme activity; 0.006291 µM, with: Ca2+ 0.25 mM).
`CC[C@H](C)[C@H](NC(=O)[C@H](CO)NC(=O)[C@H](Cc1ccc(O)cc1)NC(=O)[C@H](Cc1ccc(O)cc1)NC(=O)[C@H](CC(N)=O)NC(=O)CNC(=O)[C@H](CO)NC(=O)[C@H](Cc1ccc(O)cc1)NC(=O)[C@H](CO)NC(=O)[C@H](CO)NC(=O)[C@H](CC(N)=O)NC(=O)COCCOCCNC(=O)CN1CCN(CC(=O)O)CCN(CC(=O)O)CCN(CC(=O)O)CC1)C(=O)N[C@@H](CC(C)C)C(N)=O` [copper-64 labelled]: “maximum metastasis uptake” 25.1 %IA/cc (dynamic PET; tamoxifen-induced PDAC mouse model, metastases; 8.5 min, CLDN4-expressing tumours).
With `C#CCCCCOc1ccc2c(c1)CCCN2C(=O)CCl` the reactivity ratio was 1.49 (Epoxide hydrolase 1 (EPHX1, Homo sapiens, UniProt P07099); mass spectrometry profiling; H460 cell lysate; 100 µM over 10 µM, UniProt P07099; baseline: high over low concentration).
The inhibition of `CN(C)[C@H]1C[C@@]23CC[C@@]4(O2)C(=CC[C@]2(C)[C@@H](c5ccc6ccncc6c5)CC[C@H]24)C=C3[C@@H](O)[C@@H]1O` is reported as -4% (PRKD3 (Homo sapiens, UniProt O94806); ATP probe labelling, inhibitor, KiNativ profiling; 1 µM).

Repeated from above:
`CC[C@H](C)[C@@H]1NC(=O)[C@H](CC(C)C)NC(=O)CNC(=O)[C@H](CCCNC(=N)N)NC(=O)[C@H](Cc2c[nH]c3ccccc23)NC(=O)[C@H](CCSC)NC(=O)[C@H](CO)NC(=O)[C@H](CCC(=O)O)NC(=O)[C@H](Cc2ccccc2)NC(=O)[C@H](CC(=O)O)NC(=O)[C@H]([C@@H](C)O)NC(=O)CNC(=O)[C@H](CCC(=O)O)NC(=O)[C@H]([C@@H](C)O)NC(=O)CNC(=O)[C@H](CC(=O)O)NC1=O` gave an AlphaLISA signal of 1340 a.u. and 1080 a.u. and 1250 a.u. (MDM2 (Homo sapiens, UniProt Q00987); MDM2-ligand binding, inhibitor, AlphaLISA competition; 25 µM, with: GST-tagged MDM2 ligand; lower = stronger inhibition).
`O=C(Cc1ccc(Cl)cc1)N1CCN(CC(OCc2ccc3ccccc3c2)c2ccc(Cl)cc2Cl)CC1` (stereo not drawn): “activity vs control” 160% (ULK1 (Homo sapiens, UniProt O75385); enzyme activity, inhibitor, ADP detection; 0.1 µM).
`Nc1ccn(C2OC(COP(=O)(O)OP(=O)(O)OP(=O)(O)O)C(O)C2(F)F)c(=O)n1` (stereo not drawn) gave a Hill coefficient of 1.7 ± 0.1 (pyrG (Escherichia coli, UniProt P0A7E5, C268A); enzyme activity; with: UTP 0.05 mM).
`CC[C@H](C)[C@H](NC(=O)[C@H](CO)NC(=O)[C@H](Cc1ccc(O)cc1)NC(=O)[C@H](Cc1ccc(O)cc1)NC(=O)[C@H](CC(N)=O)NC(=O)CNC(=O)[C@H](CO)NC(=O)[C@H](Cc1ccc(O)cc1)NC(=O)[C@H](CO)NC(=O)[C@H](CO)NC(=O)[C@H](CC(N)=O)NC(=O)COCCOCCNC(=O)CN1CCN(CC(=O)O)CCN(CC(=O)O)CCN(CC(=O)O)CC1)C(=O)N[C@@H](CC(C)C)C(N)=O` [copper-64 labelled]: “maximum metastasis uptake” 25.1 %IA/cc (dynamic PET; tamoxifen-induced PDAC mouse model, metastases; 8.5 min, CLDN4-expressing tumours).
With `C#CCCCCOc1ccc2c(c1)CCCN2C(=O)CCl` the reactivity ratio was 1.49 (Epoxide hydrolase 1 (EPHX1, Homo sapiens, UniProt P07099); mass spectrometry profiling; H460 cell lysate; 100 µM over 10 µM, UniProt P07099; baseline: high over low concentration).
